Measurements pooled from the literature.
Protocols differ between the studies behind these lines. Values joined by “and” are separate records of one study, mostly repeats; a detail may differ. Numbers after ± are the reported error. In brackets after ≈: the same amount, converted by molar mass.
Chain of UniProt Q13561 (whole entry, looked up): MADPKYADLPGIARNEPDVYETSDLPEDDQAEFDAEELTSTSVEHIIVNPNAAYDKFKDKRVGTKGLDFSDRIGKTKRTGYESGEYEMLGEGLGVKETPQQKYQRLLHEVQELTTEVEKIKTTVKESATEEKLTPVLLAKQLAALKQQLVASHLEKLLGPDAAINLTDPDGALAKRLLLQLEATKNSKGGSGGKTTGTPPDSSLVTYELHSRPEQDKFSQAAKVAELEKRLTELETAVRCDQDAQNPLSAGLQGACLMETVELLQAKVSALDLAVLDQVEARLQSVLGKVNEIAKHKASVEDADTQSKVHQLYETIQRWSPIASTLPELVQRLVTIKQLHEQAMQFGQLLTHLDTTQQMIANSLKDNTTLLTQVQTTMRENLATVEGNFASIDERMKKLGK

SMILES	tested on	assay	test system	setting	how to read	endpoint	value
C[C@H]1CN(c2n[nH]c3nc(N[C@H]4CC[C@H](NS(=O)(=O)CCC(F)(F)F)CC4)ncc23)CCO1	Dynactin subunit 2 (DCTN2, Homo sapiens, UniProt Q13561)	Kinobeads competition, item: DCTN2		0.16 µM, unit not given	reference: vehicle	remaining binding	0.7
COc1ccc(-c2cc(C(F)(F)F)c3c(N)c(C(=O)N4CCC4)sc3n2)cc1	Mycobacterium tuberculosis		H37Rv wild type		reference: HepG2 IC50 over M. tuberculosis IC90	selectivity index	< 1
Cc1ccc(OC2CC(c3ccccc3)C2)c(C(N)=O)c1 (stereo not shown)	Mycobacterium tuberculosis		H37Rv-LP		reference: HepG2 CC50 over Mtb IC90	selectivity index	0.5
OC(Cn1cncn1)(Cn1cncn1)c1ccc(F)cc1F	Saccharomyces cerevisiae	cell growth	Pdr5 deleted, empty vector	2^-1.515 µg/mL		OD600	0.173 and 0.149 and 0.194
CO[C@H]1C[C@@H]2CC[C@@H](C)[C@@](O)(O2)C(=O)C(=O)N2CCCC[C@H]2C(=O)O[C@H]([C@H](C)C[C@@H]2CC[C@@H](OC(=O)NCCOCCOCCOCCOCCOCCOCCOCCOCCC(=O)N3CCc4cc(Cn5nc(-c6ccc7oc(N)nc7c6)c6c(N)ncnc65)ccc4C3)[C@H](OC)C2)C[C@@H](O)[C@H](C)/C=C(\C)[C@@H](O)[C@@H](OC)C(=O)[C@H](C)C[C@H](C)/C=C/C=C/C=C/1C			patients with advanced solid tumours	intravenous, dose not given, grade ≥3		incidence of Nausea TRAE	1.8%
Cc1ccc(OCCc2cc(F)cc(F)c2)c(C(=O)N(C)C)c1	Mycobacterium tuberculosis		H37Rv-LP		reference: HepG2 CC50 over Mtb IC90	selectivity index	2
Nc1c(C(=O)N2CC(F)(F)C2)sc2nc(-c3ccccc3)ccc12	Mycobacterium tuberculosis	growth inhibition	H37Rv LepB under-expressing			IC50	15 ± 4 µM
COC(=O)c1cc2[nH]c(=S)n(Cc3cccnc3)c(=O)c2cc1Cl	Mycobacterium tuberculosis		PptT conditional knockdown			MIC90	21.2 µM (≈ 7.67 µg/mL)
CC[C@H](C)[C@H](NC(=O)[C@H](Cc1ccccc1)NC(=O)[C@H](CCC(=O)O)NC(=O)[C@H](CCCNC(=N)N)NC(=O)[C@H](C)NC(=O)[C@H](C)NC(=O)[C@H](CCC(N)=O)NC(=O)[C@H](CCC(=O)O)NC(=O)[C@H](CCC(=O)O)NC(=O)[C@H](CC(C)C)NC(=O)[C@H](Cc1ccc(O)cc1)NC(=O)[C@H](CO)NC(=O)[C@H](CO)NC(=O)[C@@H](NC(=O)[C@H](CC(=O)O)NC(=O)[C@H](CO)NC(=O)[C@@H](NC(=O)[C@H](Cc1ccccc1)NC(=O)[C@@H](NC(=O)CNC(=O)[C@H](CCC(=O)O)NC(=O)[C@H](C)NC(=O)CCc1c[nH]cn1)[C@@H](C)O)[C@@H](C)O)C(C)C)C(=O)N[C@@H](C)C(=O)N[C@@H](Cc1c[nH]c2ccccc12)C(=O)N[C@@H](CC(C)C)C(=O)N[C@H](C(=O)N[C@@H](CCCNC(=N)N)C(=O)NCC(=O)N[C@@H](CCCNC(=N)N)C(=O)N[C@@H](CCCCNC(=O)COCCOCCNC(=O)COCCOCCNC(=O)CC[C@H](NC(=O)CCCCCCCCCCCCCCCCC(=O)O)C(=O)O)C(=O)NCC(=O)NCC(=O)N[C@@H](CO)C(=O)N[C@@H](CCCCNc1c(NCCCCCN(O)C(=O)CCC(=O)NCCCCCN(O)C(=O)CCC(=O)NCCCCCN(O)C(C)=O)c(=O)c1=O)C(=O)O)C(C)C [zirconium-89 labelled]		ex vivo gamma counting	rat, kidney	subcutaneous, 3 nmol/kg, 168 h, added: [89Zr]-labelled peptide		tissue uptake	5.17 %ID/g
CC(C)C(=O)OCc1cc2[nH]c(=S)n(Cc3cncc(C(N)=S)c3)c(=O)c2cc1Cl	Mycobacterium tuberculosis		PptT conditional knockdown			MIC90	0.353 µM (≈ 0.163 µg/mL)
CC[C@H](C)[C@@H]1NC(=O)[C@@H]2CCCN2C(=O)[C@H](CC(C)C)NC(=O)[C@H](CC(C)C)NC(=O)CNC(=O)[C@@H](NC(=O)[C@@H](NC(=O)[C@H](CC(=O)O)NC(=O)CNC(=O)[C@@H](NC(=O)[C@H](C)NC(=O)CNC(=O)[C@H](CCCCN)NC(=O)[C@H](CC(C)C)NC(=O)[C@H](CC(C)C)NC(=O)[C@H](CCCCN)NC(=O)CNC(=O)[C@@H](NC(=O)[C@@H](N)CC(C)C)C(C)C)C(C)C)C(C)C)CSSC[C@@H](C(=O)O)NC1=O		RNA-seq, item: novel.268 mRNA	mouse traumatic brain injury, frontal cortex and hippocampus	dose not given	reference: TBI plus compound vs TBI	log2 fold change	0.872
COc1ccc(-c2cc(C(F)(F)F)c3c(N)c(C(=O)NC45CC(C4)C5)sc3n2)cc1	Mycobacterium tuberculosis	growth inhibition	H37Rv LepB under-expressing			IC50	> 50 µM
O=c1c2cc(C(F)(F)F)ncc2[nH]c(=S)n1Cc1cccnc1	Mycobacterium tuberculosis		PptT conditional knockdown			MIC90	0.97 µM (≈ 0.328 µg/mL)

Repeated from above:
SMILES	tested on	assay	test system	setting	how to read	endpoint	value
CC[C@H](C)[C@H](NC(=O)[C@H](Cc1ccccc1)NC(=O)[C@H](CCC(=O)O)NC(=O)[C@H](CCCNC(=N)N)NC(=O)[C@H](C)NC(=O)[C@H](C)NC(=O)[C@H](CCC(N)=O)NC(=O)[C@H](CCC(=O)O)NC(=O)[C@H](CCC(=O)O)NC(=O)[C@H](CC(C)C)NC(=O)[C@H](Cc1ccc(O)cc1)NC(=O)[C@H](CO)NC(=O)[C@H](CO)NC(=O)[C@@H](NC(=O)[C@H](CC(=O)O)NC(=O)[C@H](CO)NC(=O)[C@@H](NC(=O)[C@H](Cc1ccccc1)NC(=O)[C@@H](NC(=O)CNC(=O)[C@H](CCC(=O)O)NC(=O)[C@H](C)NC(=O)CCc1c[nH]cn1)[C@@H](C)O)[C@@H](C)O)C(C)C)C(=O)N[C@@H](C)C(=O)N[C@@H](Cc1c[nH]c2ccccc12)C(=O)N[C@@H](CC(C)C)C(=O)N[C@H](C(=O)N[C@@H](CCCNC(=N)N)C(=O)NCC(=O)N[C@@H](CCCNC(=N)N)C(=O)N[C@@H](CCCCNC(=O)COCCOCCNC(=O)COCCOCCNC(=O)CC[C@H](NC(=O)CCCCCCCCCCCCCCCCC(=O)O)C(=O)O)C(=O)NCC(=O)NCC(=O)N[C@@H](CO)C(=O)N[C@@H](CCCCNc1c(NCCCCCN(O)C(=O)CCC(=O)NCCCCCN(O)C(=O)CCC(=O)NCCCCCN(O)C(C)=O)c(=O)c1=O)C(=O)O)C(C)C [zirconium-89 labelled]		ex vivo gamma counting	rat, kidney	subcutaneous, 3 nmol/kg, 168 h, added: [89Zr]-labelled peptide		tissue uptake	5.17 %ID/g
